{"data": "Measurements from different studies", "note": "Every numbered part comes from another study and shows a few of its results, in no order."}
{"data": "Sample 1", "target": "Interferon regulatory factor 5, full length, phosphomimetic (IRF5, Homo sapiens, UniProt Q13568-2, residues 1-514, S451D/S453D/S456D/S462D)", "method": "protein-binding microarray", "form": "double-stranded DNA, one strand shown", "sample": "in vitro", "concentration": "940 nM top", "setting": "60-bp whole probe", "added": "salmon DNA 0.4 mg/ml", "baseline": "random background probes", "reading": "higher = stronger binding", "all sequences stand within": "GCCTAGCAC … GTCTTGATTCGCTTGACGCTGCTG"}
{"Strand": "GACGGGATCCTACTGCTGACGTGCTAG", "fitted relative affinity [z-score]": -0.457}
{"Strand": "GACGGTATCGGTCTCGGGCCGTGCTAG", "fitted relative affinity [z-score]": 8.31}
{"Strand": "TACTGTGTGCATCTATCTTAGTGCTAG", "fitted relative affinity [z-score]": -0.196}
{"Strand": "GACGGTTTCGGGACCGGGGACGTGCTA", "fitted relative affinity [z-score]": 7.25}
{"Strand": "TTAGATATCAATCTCGATTAGTGCTAG", "fitted relative affinity [z-score]": 0.999}
{"Strand": "TTAAGTTTCCTTCTCCTTTAGTGCTAG", "fitted relative affinity [z-score]": 2.2}
{"Strand": "TACGAACTGGGGACTGGAGACGTGCTA", "fitted relative affinity [z-score]": -0.0226}
{"Strand": "GACGATTTCGACACTGGGGACGTGCTA", "fitted relative affinity [z-score]": 0.397}
{"Strand": "GGCGGTTTCCTTTCCCTGACGTGCTAG", "fitted relative affinity [z-score]": 2.26}
{"Strand": "GTTTTTTGGTTTCTGGTTTAGTGCTAG", "fitted relative affinity [z-score]": 4.84}
{"Strand": "GACGGACTGGGGTATTGGGACGTGCTA", "fitted relative affinity [z-score]": -0.191}
{"Strand": "TCAGCTATCACTATTCTACTGTGCTAG", "fitted relative affinity [z-score]": 0.51}
{"Strand": "TTAGATATCGGGTTACGATTAGTGCTA", "fitted relative affinity [z-score]": 0.457}
{"Strand": "GACGGTATCCTTGTCCTGACGTGCTAG", "fitted relative affinity [z-score]": 0.171}
{"Strand": "ATTGGTCTTCACTTGGCAAAGTGCTAG", "fitted relative affinity [z-score]": 0.133}
{"Strand": "TTAGGAATGCTTATCCTTTAGTGCTAG", "fitted relative affinity [z-score]": -0.441}
{"data": "Sample 2", "target": "RNA binding protein fox-1 homolog 2, RRM domain, GST-SBP tag (RBFOX2, Homo sapiens, UniProt O43251-10, residues 100-194)", "method": "RNA Bind-n-Seq", "form": "RNA", "sample": "in vitro", "concentration": "365 nM", "setting": "natural RNA segment, single round, ends assumed", "baseline": "no-protein control", "reading": "higher = stronger binding", "Target sequence (chain)": "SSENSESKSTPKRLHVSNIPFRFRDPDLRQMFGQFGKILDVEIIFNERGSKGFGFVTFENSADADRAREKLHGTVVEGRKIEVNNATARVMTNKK"}
{"Strand": "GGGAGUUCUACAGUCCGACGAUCUUUCAUUUGGUACCCUGUACCCCAGUGCCUCUGCGUCGCCUCCUUCUUGUGUGCCUUCUGAGCUGUUUCUUCAGCCUAGAAACUCCCUGCUCAAAGGCACCUUUGCUUUUUGGAAUUCUCGGGUGCCAA", "RBNS enrichment (R)": 0.337}
{"Strand": "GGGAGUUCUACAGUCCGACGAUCUUGUUAUACAGUCCAGGAACUGGUAAGUGCCCUCACCAGCGAGCAUGGCAGGUAGCUUCACUCAGUGAGUAGCAAGGGCACUCAGCUCUGAGGAUCUCAAUUCAUACAGGUGGAAUUCUCGGGUGCCAA", "RBNS enrichment (R)": 1.18}
{"Strand": "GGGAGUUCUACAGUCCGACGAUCAGUGUUUAAACGCAACAAAAGGCUACAUUUCCAUGGGGCCAGCACUGUCAUGAGCCUCACUAAGCUAUUUUGAAGAUUUUUAAGCACUGAUAAAUUAAAAAAAAAAAAUUUGGAAUUCUCGGGUGCCAA", "RBNS enrichment (R)": 0.804}
{"Strand": "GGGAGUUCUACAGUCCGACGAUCCCUUCCCUCCAGGACCUGCCCGUGUGAAGACCCCCCGGAGUGCUGAGCUUCAGGGCUGCGUGGAAAGAGUUUUUACUCUCUUUUUCUAGCCUGUAUACCAGGCUUUUCCCUGGAAUUCUCGGGUGCCAA", "RBNS enrichment (R)": 0.383}
{"Strand": "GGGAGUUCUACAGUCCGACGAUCCUAUUCCAGCCAAAUGCAGGGAAACACUUUAUUUUGUUUGUUUUAGGUUUUGUUUUUCCUUGAGAGCCUUUUUUUAGGCCCCACAGACAGUGGUGGGUGGGGAGGCGAUAUGGAAUUCUCGGGUGCCAA", "RBNS enrichment (R)": 0.901}
{"Strand": "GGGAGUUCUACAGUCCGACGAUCCAUCCGUUUCCCCACCUGAUAUGGUUUGGCUGUGUCCCCACCUAAAACUCAUCUUGAAUUGUAGCUCCCAUAAUUGCCAUGUGUUGUGGGAAGGACCCAGUGGGAGAUAAUGGAAUUCUCGGGUGCCAA", "RBNS enrichment (R)": 1.57}
{"Strand": "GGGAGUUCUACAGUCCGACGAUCAAUUUAAAAUUAGAAGUAGAGAGAGAUAAGCCAUCGCCCCUUUGCCUCUGAGAAUUGGCUGCUGUUUCUAAUAUAAUUAUUUUCUAAGAUAGCCAGAUAGUUAGAAAAAGUGGAAUUCUCGGGUGCCAA", "RBNS enrichment (R)": 0.531}
{"Strand": "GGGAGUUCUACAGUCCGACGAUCGGAAAUACCCCUAGUCCCCAAAGUUCACUUCUAGCUGCAGGUAGACAAUGAGUAACUGGUCUACUGAACCCUUUAAUAGCAUUUUAAUGUUACUGAGUCAGGAGAUUCAUUGGAAUUCUCGGGUGCCAA", "RBNS enrichment (R)": 0.449}
{"Strand": "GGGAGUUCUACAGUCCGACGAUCAUCAAGAGCAAAACUGCACAAACUUGCACAUUGGAAAGUGCAACAAGUUCCCGUGAUUGCAGUAAAAAUAUUUACUAUUCUAAAAAAAUGAGAAUUGAAGACUUAGCCAGUGGAAUUCUCGGGUGCCAA", "RBNS enrichment (R)": 0.731}
{"data": "Sample 3", "target": "Centromere-binding protein 1, full length, N-terminal tag (CBF1, Saccharomyces cerevisiae, UniProt P17106, residues 1-351)", "method": "protein-binding microarray", "form": "double-stranded DNA, one strand shown", "sample": "in vitro", "concentration": "0.8 µM", "setting": "whole 60-bp probe, no competitor", "reading": "higher = stronger binding", "sequence of UniProt P17106 (whole entry, looked up)": "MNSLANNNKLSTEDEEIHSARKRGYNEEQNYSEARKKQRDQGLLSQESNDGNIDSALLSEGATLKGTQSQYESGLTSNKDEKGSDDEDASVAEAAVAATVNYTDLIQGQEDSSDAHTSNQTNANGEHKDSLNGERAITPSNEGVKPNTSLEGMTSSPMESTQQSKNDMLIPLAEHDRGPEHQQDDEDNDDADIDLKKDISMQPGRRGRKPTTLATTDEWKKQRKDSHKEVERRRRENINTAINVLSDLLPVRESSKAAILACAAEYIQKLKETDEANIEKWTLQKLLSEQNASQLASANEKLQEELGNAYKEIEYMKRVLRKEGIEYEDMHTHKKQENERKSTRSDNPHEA"}
{"Strand": "GAATGTTTTTCTTCGCACATGGCTGGTTCTGCTTAGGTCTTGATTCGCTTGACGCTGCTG", "fluorescence intensity [a.u.]": 713}
{"Strand": "GAAAAAGAGGGAAGGCACGCATGGAAGTGACTGTAGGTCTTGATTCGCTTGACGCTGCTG", "fluorescence intensity [a.u.]": 526}
{"Strand": "CTAGAAGAACTTTTCCTGATGCTTGTATCAGAATTCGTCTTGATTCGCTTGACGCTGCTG", "fluorescence intensity [a.u.]": 488}
{"Strand": "CTAATCCAAGAAACCCGCGTGAAAAAAAATGGCTTCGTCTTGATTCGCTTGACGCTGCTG", "fluorescence intensity [a.u.]": 551}
{"Strand": "CTACCATGTTTCAGTCTCACATGGGTTTTTTGATTCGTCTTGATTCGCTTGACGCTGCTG", "fluorescence intensity [a.u.]": 702}
{"Strand": "GAACCACATCGGTAAGTGATGACCAGATAATGGTAGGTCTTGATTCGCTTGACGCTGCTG", "fluorescence intensity [a.u.]": 590}
{"Strand": "GAAAAAGCTGCACGTGACTAACTAGAACCATTTTAGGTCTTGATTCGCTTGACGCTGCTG", "fluorescence intensity [a.u.]": 19700}
{"Strand": "GAATTATTTGGCCCCCACGAGAACGCGGGGAAATAGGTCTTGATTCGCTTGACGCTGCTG", "fluorescence intensity [a.u.]": 550}
{"Strand": "GAAATACTACTATTTCATCAGATTTGTGCTTTCTAGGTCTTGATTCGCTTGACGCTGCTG", "fluorescence intensity [a.u.]": 462}
{"Strand": "GAACGTCCAAATATGCAGGTGTTTGGGTGCTATTAGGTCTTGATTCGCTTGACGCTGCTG", "fluorescence intensity [a.u.]": 551}
{"Strand": "CTATCACACCCAACTCAGGTGTAAATCGTCCTATTCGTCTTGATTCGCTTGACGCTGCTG", "fluorescence intensity [a.u.]": 507}
{"Strand": "CTAATCACATGCAAGCACATGAAGCTGGAACCATTCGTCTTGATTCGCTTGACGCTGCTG", "fluorescence intensity [a.u.]": 1810}
{"Strand": "GAAATGATAAAAAACCACGGGGTCTTATTTTGCTAGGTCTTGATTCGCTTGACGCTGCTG", "fluorescence intensity [a.u.]": 1130}
{"data": "Further values, each from its own experiment"}
{"Molecule": "PhoQ, residues 284 288 289 292 302 303 NLSRDF", "target": "PhoP, residues 12 14 15 18 19 AQALL (Escherichia coli, UniProt P23836)", "assay": "Sort-seq, item: YFP reporter", "system": "E. coli", "setting": "PhoQ-PhoP variant library, added: 10 µM Mg2+", "scale": "baseline: high Mg2+ state, higher = stronger signaling", "endpoint": "fold induction", "value": 17.8}
{"note": "Repeated from above (sample 1):"}
{"Strand": "GACGGTATCGGTCTCGGGCCGTGCTAG", "fitted relative affinity [z-score]": 8.31}
{"Strand": "TACTGTGTGCATCTATCTTAGTGCTAG", "fitted relative affinity [z-score]": -0.196}
{"Strand": "GACGGTTTCGGGACCGGGGACGTGCTA", "fitted relative affinity [z-score]": 7.25}
